Assay results from different studies.
Lines come from different studies, so protocols differ. Values joined by “and” are separate records of one study, mostly repeats; a detail may differ. ± marks the error that the study gave.

CCc1cnc(NC(=O)c2cc(S(=O)(=O)N3CCOCC3)ccc2N(C)C2CCCC2)s1
Chloride (mouse, serum; 10 mg/kg, 3 doses): 113 mEq/L

CC[C@H](C)[C@@H](C(=O)N[C@@H](CC(C)C)C(=O)N[C@@H](CO)C(=O)N[C@@H](CO)C(=O)N[C@H](C(=O)N[C@@H](CCC(=O)O)C(=O)N[C@H](C(=O)NCC(=O)N[C@@H](CO)C(=O)N[C@@H](CC(N)=O)C(=O)N[C@H](C(=O)N1C[C@H](O)C[C@H]1C(N)=O)[C@@H](C)O)C(C)C)[C@@H](C)O)N(C)C(=O)[C@H](C)NC(=O)CN(C)C(=O)[C@H](Cc1ccccc1)NC(=O)[C@H](CO)NC(=O)[C@H](CO)NC(=O)[C@H](CCCNC(=N)N)NC(=O)[C@H](CCC(N)=O)NC(=O)[C@H](CC(C)C)NC(=O)[C@H](Cc1ccccc1)NC(=O)[C@H](CCCC(=O)O)NC(=O)[C@H](C)NC(=O)[C@H](CC(C)C)NC(=O)[C@H](CCCNC(=N)N)NC(=O)[C@H](CCC(=O)O)NC(=O)[C@@H](NC(=O)[C@H](C)NC(=O)[C@@H]1CCCCNC(=O)C[C@H](NC(=O)[C@H](CCCNC(=N)N)NC(=O)CC[C@H](NC(=O)CCCCCCCCCCCCCCCCCCC(=O)O)C(=O)O)C(=O)NCC(=O)N[C@@H]([C@@H](C)O)C(=O)N[C@@H](C)C(=O)N[C@@H]([C@@H](C)O)C(=O)N1)[C@@H](C)O
chemical degradation (RP-UPLC; Tris buffer, mannitol, NaCl; 1 week, pH 6.6, 40 °C): ≤ 3%

CCC(=O)N(C)c1ccc(Cl)c(Cl)c1
plasma concentration (female C57BL/6 mice; oral, 10 mg/kg, 1 h): 62.8 ng/mL

Cc1cc(-c2ccc(C(=O)[C@@H]3CCCC[C@H]3C(=O)Nc3cnn4c3C(=O)NCC4)cc2)[nH]n1
radioactivity recovery per interval (human, faeces; oral, 200 mg, 168-192 h; baseline: dose): 0.03% and 0.05% and 0.04% and 2.15% and 0.09%

[123I]c1ccc2nc(-c3ccc(-n4ccnn4)nc3)cn2c1
tracer uptake (male Wistar rat, kidney; intravenous, 4 MBq, 6 h): 0.111 %ID/g

O=C(NS(=O)(=O)c1cccs1)c1cc2ccccc2n1Cc1ccc(Br)c2ccccc12
AUC(0-inf) (Sprague-Dawley rat, male, plasma; oral, 20 mg/kg): 11300 ng·h/mL

CCCC[C@H](OC(C)=O)c1ccccc1C(=O)O
AUC(0-inf) (beagle dogs, both sexes, whole blood; intravenous, 1.5 mg/kg single dose): 1560 ± 210 ng·h/mL

CC[C@H](C)[C@H](NC(=O)[C@H](Cc1ccc(O)cc1)NC(=O)[C@@H](NC(=O)[C@H](CCCNC(=N)N)NC(=O)[C@@H](N)CC(=O)O)C(C)C)C(=O)N[C@@H](Cc1c[nH]cn1)C(=O)N1CCC[C@H]1C(=O)O
elimination rate constant (LC-MS/MS; Sprague-Dawley rats, plasma; subcutaneous, 10 mg/kg/day, day 0): 0.025 min⁻¹

CCCCN1C(=O)c2cccc3c(NCCCN4CCOCC4)ccc(c23)C1=O
molar extinction coefficient (DCM): 4400 M⁻¹ cm⁻¹

Cn1c2cc([S+](C)[O-])sc2c2cnn(Cc3cccc(N)c3)c(=O)c21 (centres unmarked)
bioavailability (male BALB/c mouse, plasma; intraperitoneal, 10 mg/kg, single dose): > 100%

CCCCN1C(=O)c2cccc3c(NCCCCCCCCN4CCOCC4)ccc(c23)C1=O
molar extinction coefficient (DMF): 12200 M⁻¹ cm⁻¹

CCC1=[N+]2N=C(/C=C/C=C/c3ccccc3)C(=O)O[B-]2(c2ccccc2)Oc2cc(N(CC)CC)ccc21 (centres unmarked)
molar absorption coefficient (toluene): 60000 M⁻¹ cm⁻¹

CCCCN1C(=O)c2cccc3c(NCCCCCN4CCOCC4)ccc(c23)C1=O
fluorescence lifetime (toluene): 8.4 ns

C=C(NC(=O)c1csc(-c2nc3c(cc2O)-c2nc(cs2)C(=O)NC(C(C)O)C(=O)NC(=C(C)OC)c2nc(cs2)C(=O)NC2c4nc(cs4)C(=O)NC(COC(=O)c4c5c6c(cccc6n4O)COC(=O)C(OC4CC(C)(O)C(N(C)C)C(C)O4)C2OC5)c2nc-3cs2)n1)C(N)=O (centres unmarked)
MRT(0-t) (ICR mice, Streptococcus pneumoniae ATCC 49169 infected, immunocompromised, blood; intravenous, 32 mg/kg/day once daily): 3.7 h

Cc1n[nH]c(C)c1CCCOc1cc(C(=O)NCCCCC(NC(=O)CN2CCN(CC(=O)[O-])CCN(CC(=O)[O-])CCN(CC(=O)[O-])CC2)C(=O)NCC2CCC(C(=O)NC(Cc3ccc4ccccc4c3)C(=O)NCCCCC(NC(=O)NC(CCC(=O)O)C(=O)O)C(=O)O)CC2)ccc1F.[68Ga+3] (centres unmarked)
mean tumour uptake (micro-PET/CT; mouse 22Rv1 xenograft, tumour; 2 h post-injection): 11.4 ± 1.16 %ID/g

COc1cccc(OC)c1-c1cc(C(=O)NC2(C(=O)O)C3CC4CC(C3)CC2C4)nn1-c1ccc(C(=O)N(C)CCCN(C)CCCN(C)C(=O)[C@H](CCCCNC(=O)[C@H](CC(C)C)NC(=O)C2OC2C(=O)O)NC(=O)CN2CCN(CC(=O)[O-])CCN(CC(=O)[O-])CCN(CC(=O)[O-])CC2)cc1C(C)C.[177Lu+3] (mixture of isomers)
tumour-to-brain ratio (mouse, HT-29 xenograft; 24 h post injection, biodistribution; baseline: tumour over brain uptake): 137

CN1CCC[C@]1(C)/C=C/S(=O)(=O)NC(=O)Nc1c2c(cc3c1CCC3)CCC2
subjects with adverse event (measured: glucose in urine, not related; human; oral, 100 mg twice daily, 14 days, multiple ascending dose): 0%

C=CC(=O)Nc1cc(Nc2nccc(-c3cn(C)c4ccccc34)n2)c(OC)cc1N(C)CCNC
recovery (storage stability; human dried blood spots; 5 h, on ice, medium QC level): 90%

COCC1CN(C2CCN(c3cc(OC)c(Nc4ncc(Br)c(Nc5ccc6c(c5P(C)(C)=O)OCCO6)n4)cc3C)CC2)C1
Tmax (EGFR-mutant NSCLC patients, plasma; oral, 60 mg single dose, median): 1.98 h

O=C(Nc1cnccc1-c1ccc([18F])nc1)c1ccnc(NC(=O)C2CC2)c1
SUV (mice, transgenic, GSK-3β, early-stage, liver; intravenous, dose not given, 120 min): 5.05

CC(C)(O)c1ncc([S@](N)(=O)=NC(=O)Nc2c3c(cc4c2CCC4)CCC3)s1
freeze-thaw stability (human urine; -20 °C or below): 3 cycles

CN(O)C(=O)CCC(=O)NCCCN(CCCCN(CCCNC(=O)CCC(=O)N(C)O)C(=O)CCC(=O)N(C)O)C(=O)CCC(=O)N(C)O.[89Zr]
intact complex (radio-TLC; aqueous buffer; 7 d, pH 7.2, 37 °C, 89Zr-labelled complex, added: FeCl3 100-fold excess): 62.3 ± 0.3%

CCCCN1C(=O)c2cccc3c(NCCCCN4CCOCC4)ccc(c23)C1=O
molar extinction coefficient (chloroform): 5700 M⁻¹ cm⁻¹

O=C(Nc1cnccc1-c1ccc([18F])cc1)c1ccnc(NC(=O)C2CC2)c1
SUV (PET imaging; FVB/NJ mice, both sexes, brain; intravenous, 10 min post-injection): 0.38

CSCC[C@H](N)C(=O)N[C@@H](CO)C(=O)N[C@H](C(=O)N[C@@H](C)C(=O)NCC(=O)N[C@@H](CC(C)C)C(=O)N[C@@H](CCCCN)C(=O)N[C@@H](CCCCN)C(=O)N[C@@H](CCC(N)=O)C(=O)N[C@@H](Cc1c[nH]c2ccccc12)C(=O)N[C@@H](Cc1ccc(O)cc1)C(=O)N[C@@H](CCCCN)C(=O)N[C@@H](C)C(=O)N[C@@H](CO)C(=O)N[C@@H](CCC(N)=O)C(=O)N[C@@H](CC(C)C)C(=O)N[C@H](C(=O)N[C@@H](CO)C(=O)N[C@@H](CCC(=O)O)C(=O)N[C@@H](CCCCN)C(=O)N[C@H](C(=O)NCC(=O)NCC(=O)N[C@@H](C)C(N)=O)C(C)C)C(C)C)C(C)C
fractional helicity (circular dichroism; phosphate buffer; pH 7.4): 6.7%

COc1ccc([C@@H]2CC(=O)c3c(O)cc(O[C@@H]4O[C@H](CO)[C@@H](O)[C@H](O)[C@H]4O[C@@H]4O[C@@H](C)[C@H](O)[C@@H](O)[C@H]4O)cc3O2)cc1O
half-life (LC-MS/MS; Sprague-Dawley rat, male, obese, plasma; intravenous, 4 mg/kg): 8.36 ± 6.97 h

O=C([O-])CN1CCN(CC(=O)[O-])CCN(CC(=O)NC[C@H]2CC[C@H](C(=O)N[C@@H](Cc3ccc4ccccc4c3)C(=O)NCCCC[C@H](NC(=O)N[C@@H](CCC(=O)O)C(=O)O)C(=O)O)CC2)CCN(CC(=O)[O-])CC1.[68Ga+3]
distribution half-life (ICR mice, blood; intravenous): 1.02 min

CC[C@H](C)[C@@H]1NC(=O)[C@H](Cc2ccc(O)cc2)NC(=O)CCCSC[C@@H](C(=O)N(CC(=O)N[C@@H](CC(C)C)C(=O)NCC(N)=O)Cc2ccc(F)cc2)NC(=O)[C@H](CC(N)=O)NC(=O)[C@H](CCC(N)=O)NC1=O
bioavailability (human; intranasal; baseline: intravenous): 3.7%

C(=N\Nc1nnc(N/N=C/c2ccccc2)c2ccccc12)/c1ccccc1
haemolysis (haemolysis; human; 1 mM, 45 min): 7.3%
